Measurements collected from several papers.
Numbered parts are unrelated; each lists some results of a single study. Substitutions count along the parent as printed.

Sample 1
Target: CCNA2, cyclin fold, Cln2 fusion (human)
Method: yeast growth competition, sequencing
Matrix: yeast
Setting: strong parent motif
Reference: not given
Direction: higher = stronger binding
Starting sequence: GMNC docking peptide (human); KNAKRNLSSEFAN; partner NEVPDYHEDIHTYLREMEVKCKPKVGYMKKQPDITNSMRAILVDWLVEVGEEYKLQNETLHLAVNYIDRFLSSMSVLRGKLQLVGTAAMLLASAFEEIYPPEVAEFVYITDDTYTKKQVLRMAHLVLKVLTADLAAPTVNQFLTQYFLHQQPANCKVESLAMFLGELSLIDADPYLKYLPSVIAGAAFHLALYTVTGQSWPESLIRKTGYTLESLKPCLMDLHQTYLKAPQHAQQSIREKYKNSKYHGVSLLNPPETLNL
Substitution	normalised enrichment score
KNAKRNGSSEFAN [L7G]	0.122
KNAKRNKSSEFAN [L7K]	1.18
KNAKRPLSSEFAN [N6P]	0.344

Sample 2
Target: Histone acetyltransferase KAT6A, both winged helices, GST fusion (KAT6A, Homo sapiens, UniProt Q92794, residues 1-181)
Method: protein binding microarray
Molecule type: double-stranded DNA, one strand shown
Matrix: in vitro
Tested at: not given
Setting: 8-mer, flanks averaged, mean of 2 arrays, mostly near background
Reference: not given
Direction: higher = stronger binding
Target sequence (chain): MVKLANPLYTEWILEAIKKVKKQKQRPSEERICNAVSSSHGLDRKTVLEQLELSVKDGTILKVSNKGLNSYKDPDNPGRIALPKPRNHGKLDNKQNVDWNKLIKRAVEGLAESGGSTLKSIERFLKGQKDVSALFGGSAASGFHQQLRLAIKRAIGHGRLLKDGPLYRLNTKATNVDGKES
Oligonucleotide	E-score
GCGGAGCC	0.168
ATGGCAAG	-0.0843
CGTCTTGC	0.105
CAGGACGG	0.106
CAGGAAGC	-0.132

Sample 3
Target: RNA binding protein fox-1 homolog 2, RRM domain, GST-SBP tag (RBFOX2, Homo sapiens, UniProt O43251-10, residues 100-194)
Method: RNA Bind-n-Seq
Molecule type: RNA
Matrix: in vitro
Tested at: 365 nM
Setting: natural RNA segment, single round, ends assumed
Reference: no-protein control
Direction: higher = stronger binding
Shared flanks, not repeated: GGGAGUUCUACAGUCCGACGAUC … UGGAAUUCUCGGGUGCCAA
Target sequence (chain): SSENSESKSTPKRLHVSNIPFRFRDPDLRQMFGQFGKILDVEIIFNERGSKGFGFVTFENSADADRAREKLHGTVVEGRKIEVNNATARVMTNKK
Oligonucleotide	RBNS enrichment (R)
UGGUCAUUGAGUUCUUAGUGUAGUUUGCUAGAUGAUUAUUAAGAUUCUUUUGUGUCUGACACUUGUGGUGAGUUGCUUUUGAAAUCUGUUGAGAUUUCCAUGUGAGAACU	0.919
CCUUGCUGAGUGAAACCAACUCAUUUCUGAUUGGGCACAAAGAACUGCAUUCUUUGGACGUGUGAAUCCAUGUUCCUCUUCCUCUGGCCACUGAACACCUCCACCAGCUC	0.405
GUUGUUCAUUUCAGCCUCUGGAUGGCUGGCUGCCUUAAACACAAUCAAUUUCAAAGCUCCAUUUCAUAAAGGGGCUACUUUGAAGGAGUUAAGAUGGAAGACUUCCUUCU	0.244
UGGAGAAAUUACCAAGAUUUUAACAUCUAUAAAAUUGGUAUGUCUUAAAAGUUAUUUCAAAAAUCCUGUGAAGCAUCUGAAACUGGCUAGAACCAGUAACACUGAGACAU	1.11
ACCAUUUAUUCUUUCAUUUAUAGUUGGGAAAGUUUUUGACGGUACUAACAAAGUGGUCGCAGGAGAUUUUGGAACGGCUGGUUUAAAUGGCUUCAGGAGACUUCAGUUUU	0.51
GUCUUUCAUCCUUGACAGGCUGGUAAUGUGCUGGCCACCUCCAGCUCCUGCAUCGAGUCUGUAAACCAGAGCUGGUUCUCAUGGCCUUCGUCACGAUACCAGGAUACGGA	0.467
CACAUCUUACCGAGGAAAGGAGGCAAGGAAGUGCCCUUUUGUGUCUCCUCAUUGUUCACAGCCUGUUGGUCUCGAACACUCAACAUAUGAUUGCUCGAUCACUUUAGAUA	0.295
UAUAUAUGGAUGGAUGUAAUAUAUGUAGAACACACACAUAGAUGUAUAUAGGAUACACACUCAUGUAUGUAAACGUAUACAUAUGUGUAUAUAUGAUACAUACACAUACA	0.459

Further values, each from its own experiment
Substance	target	assay	test system	conditions	how to read	measurement	result
PhoQ, residues 284 288 289 292 302 303 GANMMA	PhoP, residues 12 14 15 18 19 IFFTR (Escherichia coli, UniProt P23836)	Sort-seq, measured: YFP reporter	E. coli	PhoQ-PhoP variant library, together with: 10 µM Mg2+	reference: high Mg2+ state, higher = stronger signaling	fold induction	7.02

Some of these lines once more (sample 3):
Oligonucleotide	RBNS enrichment (R)
UGGUCAUUGAGUUCUUAGUGUAGUUUGCUAGAUGAUUAUUAAGAUUCUUUUGUGUCUGACACUUGUGGUGAGUUGCUUUUGAAAUCUGUUGAGAUUUCCAUGUGAGAACU	0.919
CACAUCUUACCGAGGAAAGGAGGCAAGGAAGUGCCCUUUUGUGUCUCCUCAUUGUUCACAGCCUGUUGGUCUCGAACACUCAACAUAUGAUUGCUCGAUCACUUUAGAUA	0.295
